{"data": "Assay results gathered from unrelated publications", "note": "Each numbered part is a random draw from the data of one study; scales do not carry over between parts. Substitutions count along the parent as printed."}
{"data": "Set 1", "target": "Histone acetyltransferase KAT6A, both winged helices, GST fusion (KAT6A, Homo sapiens, UniProt Q92794, residues 1-181)", "method": "protein binding microarray", "form": "double-stranded DNA, one strand shown", "matrix": "in vitro", "concentration": "not given", "setting": "8-mer, flanks averaged, mean of 2 arrays, mostly near background", "reference": "not given", "reading": "higher = stronger binding", "Construct (chain)": "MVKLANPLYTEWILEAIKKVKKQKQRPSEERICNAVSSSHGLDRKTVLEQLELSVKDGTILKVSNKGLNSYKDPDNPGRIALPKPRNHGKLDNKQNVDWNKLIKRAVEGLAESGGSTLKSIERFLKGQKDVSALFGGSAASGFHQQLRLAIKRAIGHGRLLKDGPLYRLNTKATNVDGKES"}
{"Sequence": "CACTCAAC", "E-score": -0.172}
{"Sequence": "GAGGTAGC", "E-score": -0.0493}
{"Sequence": "ACTAACCG", "E-score": 0.112}
{"Sequence": "CCTCCTCC", "E-score": -0.239}
{"Sequence": "AAACTTTG", "E-score": 0.117}
{"Sequence": "CCAGATGA", "E-score": -0.045}
{"Sequence": "AGGATCAG", "E-score": -0.181}
{"data": "Set 2", "target": "Interferon regulatory factor 7, full length, phosphomimetic (IRF7, Homo sapiens, UniProt Q92985, residues 1-503, S101K/S471D/S472D/S475D/S476D/S477D/S483D/S484D/S487D)", "method": "protein-binding microarray", "form": "double-stranded DNA, one strand shown", "matrix": "in vitro", "concentration": "250 nM", "setting": "60-bp whole probe", "with": "salmon DNA 0.4 mg/ml", "reference": "random background probes", "reading": "higher = stronger binding", "constant ends, left off below": "GCCTAGCAC … GTCTTGATTCGCTTGACGCTGCTG", "sequence of UniProt Q92985 (whole entry, unmodified, looked up)": "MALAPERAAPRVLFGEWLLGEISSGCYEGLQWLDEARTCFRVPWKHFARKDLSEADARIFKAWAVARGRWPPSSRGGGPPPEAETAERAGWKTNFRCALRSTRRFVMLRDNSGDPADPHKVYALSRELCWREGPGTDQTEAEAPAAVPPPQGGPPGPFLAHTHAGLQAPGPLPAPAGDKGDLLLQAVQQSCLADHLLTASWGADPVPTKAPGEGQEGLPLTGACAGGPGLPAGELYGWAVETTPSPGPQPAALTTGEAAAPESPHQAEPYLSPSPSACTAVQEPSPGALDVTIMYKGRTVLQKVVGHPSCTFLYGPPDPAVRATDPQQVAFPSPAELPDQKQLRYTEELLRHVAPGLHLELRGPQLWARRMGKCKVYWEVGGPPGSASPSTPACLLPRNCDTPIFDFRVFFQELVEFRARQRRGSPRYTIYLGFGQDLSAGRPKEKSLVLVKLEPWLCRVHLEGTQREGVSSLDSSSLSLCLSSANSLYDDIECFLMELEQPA"}
{"Sequence": "TCATTTAGTAGTTTCTAACTGTGCTAG", "log fluorescence": "2.05 z-score"}
{"Sequence": "GACCGACTGGGTTTCGGGACGTGCTAG", "log fluorescence": "2.27 z-score"}
{"Sequence": "GACGGTTTCCTTTCCCTAACGTGCTAG", "log fluorescence": "5 z-score"}
{"Sequence": "ACAGAACTCAACTGTCTGCCTGTGCTA", "log fluorescence": "-0.175 z-score"}
{"Sequence": "TCAAGCCTCAGTCCTCACACTGTGCTA", "log fluorescence": "-0.101 z-score"}
{"Sequence": "TTAGGACTGGACTTTCGGATAGTGCTA", "log fluorescence": "-0.224 z-score"}
{"Sequence": "CAATACCTTATGAATGTGTTGTGCTAG", "log fluorescence": "0.184 z-score"}
{"data": "Set 3", "target": "CCNE1, cyclin fold, Cln2 fusion (human)", "method": "yeast growth competition, sequencing", "matrix": "yeast", "setting": "strong parent motif", "reference": "not given", "reading": "higher = stronger binding", "parent": "BRCA2 docking peptide (human); PSIKRNLLNEFDR"}
{"Variant": "N6F", "normalised enrichment score": 1.16}
{"Variant": "F11G", "normalised enrichment score": 0.8}
{"Variant": "N9L", "normalised enrichment score": 2.59}
{"Variant": "R13E", "normalised enrichment score": 3.17}
{"Variant": "R5Q", "normalised enrichment score": 0.732}
{"Variant": "N6Q", "normalised enrichment score": 0.31}
{"Variant": "S2C", "normalised enrichment score": 2.41}
{"Variant": "N6W", "normalised enrichment score": 1.07}
{"Variant": "D12Y", "normalised enrichment score": 1.35}
{"data": "Further values, each from its own experiment"}
{"Molecule": "PhoQ, residues 284 288 289 292 302 303 NLSRDF", "target": "PhoP, residues 12 14 15 18 19 LYHSL (Escherichia coli, UniProt P23836)", "test": "Sort-seq, measured: YFP reporter", "test system": "E. coli", "conditions": "PhoQ-PhoP variant library, with: 10 µM Mg2+", "how to read": "reference: high Mg2+ state, higher = stronger signaling", "quantity": "fold induction", "result": 0.525}
{"note": "Some of these lines once more (set 3):"}
{"Variant": "N9L", "normalised enrichment score": 2.59}
{"Variant": "R13E", "normalised enrichment score": 3.17}
